{"data": "Experimental data collected from several papers", "note": "Every numbered part comes from another study and shows a few of its results, in no order.", "sequence of UniProt P48729 (whole entry, looked up)": "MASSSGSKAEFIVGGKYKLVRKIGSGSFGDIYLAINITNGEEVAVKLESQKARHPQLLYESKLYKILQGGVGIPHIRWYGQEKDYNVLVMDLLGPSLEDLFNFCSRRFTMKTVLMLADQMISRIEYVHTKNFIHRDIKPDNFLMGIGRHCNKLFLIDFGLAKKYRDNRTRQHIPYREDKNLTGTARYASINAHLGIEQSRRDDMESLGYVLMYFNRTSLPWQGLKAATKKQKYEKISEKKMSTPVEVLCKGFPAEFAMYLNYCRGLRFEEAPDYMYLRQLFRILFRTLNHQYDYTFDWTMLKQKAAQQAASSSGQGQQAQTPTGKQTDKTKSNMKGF", "sequence of UniProt Q9UEE5 (whole entry, looked up)": "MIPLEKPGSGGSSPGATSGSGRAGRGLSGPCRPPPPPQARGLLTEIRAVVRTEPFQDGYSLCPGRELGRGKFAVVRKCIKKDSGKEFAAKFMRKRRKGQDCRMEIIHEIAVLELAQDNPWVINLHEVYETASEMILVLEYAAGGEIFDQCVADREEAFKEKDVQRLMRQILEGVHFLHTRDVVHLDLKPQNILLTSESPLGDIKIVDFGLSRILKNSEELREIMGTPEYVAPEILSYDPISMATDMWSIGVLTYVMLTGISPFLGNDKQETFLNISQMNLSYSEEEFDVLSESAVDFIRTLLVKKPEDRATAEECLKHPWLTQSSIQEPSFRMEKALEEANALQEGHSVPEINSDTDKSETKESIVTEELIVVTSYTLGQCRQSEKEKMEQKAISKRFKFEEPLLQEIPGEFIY", "sequence of UniProt P51817 (whole entry, looked up)": "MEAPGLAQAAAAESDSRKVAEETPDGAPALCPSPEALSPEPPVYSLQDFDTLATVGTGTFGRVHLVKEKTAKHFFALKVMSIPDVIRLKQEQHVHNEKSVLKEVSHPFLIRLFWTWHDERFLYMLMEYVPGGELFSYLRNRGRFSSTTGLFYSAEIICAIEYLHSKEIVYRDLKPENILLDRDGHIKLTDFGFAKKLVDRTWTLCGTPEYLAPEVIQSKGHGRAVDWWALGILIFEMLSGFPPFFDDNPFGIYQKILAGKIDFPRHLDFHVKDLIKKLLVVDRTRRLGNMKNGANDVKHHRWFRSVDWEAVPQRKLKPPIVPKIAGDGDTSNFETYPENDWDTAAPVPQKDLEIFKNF", "sequence of UniProt P16591 (whole entry, looked up)": "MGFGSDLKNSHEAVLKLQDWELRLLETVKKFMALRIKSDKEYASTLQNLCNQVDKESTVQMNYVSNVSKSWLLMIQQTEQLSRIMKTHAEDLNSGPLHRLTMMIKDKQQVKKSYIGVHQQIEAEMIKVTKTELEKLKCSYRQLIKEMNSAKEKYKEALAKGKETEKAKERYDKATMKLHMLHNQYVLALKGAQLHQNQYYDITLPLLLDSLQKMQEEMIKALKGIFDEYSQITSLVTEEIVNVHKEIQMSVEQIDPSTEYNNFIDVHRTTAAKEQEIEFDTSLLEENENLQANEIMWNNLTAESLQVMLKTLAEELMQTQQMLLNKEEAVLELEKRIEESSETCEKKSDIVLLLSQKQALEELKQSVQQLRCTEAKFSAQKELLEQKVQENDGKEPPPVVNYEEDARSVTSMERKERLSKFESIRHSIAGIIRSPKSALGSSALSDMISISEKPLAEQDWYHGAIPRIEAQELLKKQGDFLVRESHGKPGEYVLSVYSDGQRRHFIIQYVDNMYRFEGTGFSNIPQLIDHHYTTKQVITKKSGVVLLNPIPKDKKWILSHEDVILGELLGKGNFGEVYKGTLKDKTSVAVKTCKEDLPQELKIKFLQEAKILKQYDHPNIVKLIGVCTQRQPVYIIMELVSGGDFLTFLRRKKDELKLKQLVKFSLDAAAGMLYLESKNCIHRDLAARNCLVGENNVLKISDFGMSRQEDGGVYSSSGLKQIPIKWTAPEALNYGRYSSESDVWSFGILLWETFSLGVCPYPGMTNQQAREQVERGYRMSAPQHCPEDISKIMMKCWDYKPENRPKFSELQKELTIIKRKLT", "sequence of UniProt Q8IVH8 (whole entry, looked up)": "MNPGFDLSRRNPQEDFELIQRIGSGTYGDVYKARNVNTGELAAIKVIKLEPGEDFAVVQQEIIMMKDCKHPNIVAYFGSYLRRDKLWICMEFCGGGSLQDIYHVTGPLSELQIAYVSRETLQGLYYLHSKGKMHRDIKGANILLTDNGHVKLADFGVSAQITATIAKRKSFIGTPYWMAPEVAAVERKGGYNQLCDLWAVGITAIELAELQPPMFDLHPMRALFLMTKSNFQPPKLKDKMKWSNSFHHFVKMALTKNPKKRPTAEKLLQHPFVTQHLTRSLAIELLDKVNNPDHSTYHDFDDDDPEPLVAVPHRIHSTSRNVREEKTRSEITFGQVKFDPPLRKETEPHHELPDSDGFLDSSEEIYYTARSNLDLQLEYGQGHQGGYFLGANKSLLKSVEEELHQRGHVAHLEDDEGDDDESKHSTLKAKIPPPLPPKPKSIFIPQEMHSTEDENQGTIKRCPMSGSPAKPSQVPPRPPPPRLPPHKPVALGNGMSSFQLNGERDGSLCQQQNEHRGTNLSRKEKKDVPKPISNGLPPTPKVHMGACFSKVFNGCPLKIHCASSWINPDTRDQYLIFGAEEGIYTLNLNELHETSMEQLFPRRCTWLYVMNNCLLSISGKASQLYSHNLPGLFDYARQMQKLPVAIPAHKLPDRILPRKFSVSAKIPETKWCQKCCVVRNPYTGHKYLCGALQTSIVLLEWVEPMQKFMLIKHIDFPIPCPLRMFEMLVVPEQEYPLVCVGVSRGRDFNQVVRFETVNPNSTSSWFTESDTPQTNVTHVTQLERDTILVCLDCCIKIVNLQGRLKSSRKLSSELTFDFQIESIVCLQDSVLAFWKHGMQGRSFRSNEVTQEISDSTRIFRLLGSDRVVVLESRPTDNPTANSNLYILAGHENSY", "sequence of UniProt P30530 (whole entry, looked up)": "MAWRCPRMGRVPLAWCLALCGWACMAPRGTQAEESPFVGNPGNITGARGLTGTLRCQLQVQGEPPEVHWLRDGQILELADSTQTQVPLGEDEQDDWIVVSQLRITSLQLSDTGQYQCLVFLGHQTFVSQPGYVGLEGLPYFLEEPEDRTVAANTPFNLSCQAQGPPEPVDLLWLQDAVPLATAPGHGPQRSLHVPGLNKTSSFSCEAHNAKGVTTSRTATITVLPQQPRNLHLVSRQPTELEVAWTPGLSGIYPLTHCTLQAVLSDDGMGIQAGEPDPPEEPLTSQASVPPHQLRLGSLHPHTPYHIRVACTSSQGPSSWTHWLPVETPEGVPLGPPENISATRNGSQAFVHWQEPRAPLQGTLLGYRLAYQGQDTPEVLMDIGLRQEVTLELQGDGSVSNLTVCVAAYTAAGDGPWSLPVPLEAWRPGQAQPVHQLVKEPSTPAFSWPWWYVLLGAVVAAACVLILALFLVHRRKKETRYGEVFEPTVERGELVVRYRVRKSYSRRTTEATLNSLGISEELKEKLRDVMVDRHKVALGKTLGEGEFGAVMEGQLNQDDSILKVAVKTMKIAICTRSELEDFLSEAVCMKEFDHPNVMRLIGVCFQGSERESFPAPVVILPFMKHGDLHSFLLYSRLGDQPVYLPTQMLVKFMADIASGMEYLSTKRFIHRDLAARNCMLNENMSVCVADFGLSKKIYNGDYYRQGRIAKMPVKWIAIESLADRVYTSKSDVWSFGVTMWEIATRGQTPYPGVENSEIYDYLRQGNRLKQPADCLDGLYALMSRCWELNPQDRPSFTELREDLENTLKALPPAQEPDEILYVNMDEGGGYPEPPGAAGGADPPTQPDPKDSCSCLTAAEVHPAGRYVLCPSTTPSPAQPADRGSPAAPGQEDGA", "sequence of UniProt P22607 (whole entry, unmodified, looked up)": "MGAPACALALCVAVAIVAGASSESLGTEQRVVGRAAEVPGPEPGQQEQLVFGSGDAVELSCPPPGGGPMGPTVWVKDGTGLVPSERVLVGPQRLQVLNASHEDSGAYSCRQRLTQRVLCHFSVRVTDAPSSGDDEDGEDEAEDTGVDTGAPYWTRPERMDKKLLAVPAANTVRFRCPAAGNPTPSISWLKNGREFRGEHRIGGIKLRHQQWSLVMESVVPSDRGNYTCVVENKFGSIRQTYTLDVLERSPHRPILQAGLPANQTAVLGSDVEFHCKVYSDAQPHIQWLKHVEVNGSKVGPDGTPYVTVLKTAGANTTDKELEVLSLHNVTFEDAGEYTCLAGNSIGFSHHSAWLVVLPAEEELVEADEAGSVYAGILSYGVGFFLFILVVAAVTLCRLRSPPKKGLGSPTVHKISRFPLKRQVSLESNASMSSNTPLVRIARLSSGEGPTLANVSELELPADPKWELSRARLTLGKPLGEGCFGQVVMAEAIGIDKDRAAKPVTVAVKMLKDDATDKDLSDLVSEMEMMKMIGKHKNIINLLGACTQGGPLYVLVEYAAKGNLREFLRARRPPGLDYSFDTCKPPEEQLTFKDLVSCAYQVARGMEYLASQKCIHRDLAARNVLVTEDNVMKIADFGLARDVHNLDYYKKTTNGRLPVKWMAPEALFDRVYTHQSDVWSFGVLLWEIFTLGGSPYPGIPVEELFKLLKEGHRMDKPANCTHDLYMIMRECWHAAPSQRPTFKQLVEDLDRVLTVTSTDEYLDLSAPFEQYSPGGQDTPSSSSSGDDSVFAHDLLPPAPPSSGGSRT", "sequence of UniProt P15735 (whole entry, looked up)": "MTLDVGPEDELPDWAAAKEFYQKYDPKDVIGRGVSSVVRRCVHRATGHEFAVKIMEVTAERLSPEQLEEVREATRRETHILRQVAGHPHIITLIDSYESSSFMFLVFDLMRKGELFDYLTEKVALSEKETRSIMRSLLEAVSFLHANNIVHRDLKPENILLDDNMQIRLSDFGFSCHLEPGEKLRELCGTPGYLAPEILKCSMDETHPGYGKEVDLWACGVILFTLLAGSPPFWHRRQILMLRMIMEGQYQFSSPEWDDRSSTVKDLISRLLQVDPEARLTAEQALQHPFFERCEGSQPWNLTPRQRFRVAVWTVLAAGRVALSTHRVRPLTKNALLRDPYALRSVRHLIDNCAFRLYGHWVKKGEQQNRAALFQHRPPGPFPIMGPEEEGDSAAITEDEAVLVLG"}
{"data": "Set 1", "target": "PABPC1L2, full length, GST fusion (mouse, UniProt A0ABA7IW68)", "method": "RNAcompete", "form": "RNA", "sample": "in vitro", "concentration": "20 nM", "notes": "7-mer, probes averaged, single round", "relative to": "mean of 7-mers", "reading": "higher = stronger binding", "Residues (chain)": "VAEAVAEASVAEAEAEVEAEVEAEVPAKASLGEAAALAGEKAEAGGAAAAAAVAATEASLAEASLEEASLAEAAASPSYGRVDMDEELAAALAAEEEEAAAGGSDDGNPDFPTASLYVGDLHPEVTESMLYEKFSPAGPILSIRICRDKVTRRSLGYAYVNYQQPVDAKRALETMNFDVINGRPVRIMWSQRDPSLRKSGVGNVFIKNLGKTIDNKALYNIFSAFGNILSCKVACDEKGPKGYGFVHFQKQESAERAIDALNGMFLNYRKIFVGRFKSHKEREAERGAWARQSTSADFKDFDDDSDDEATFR"}
{"Strand": "AGCGGCA", "7-mer Z-score": 0.202}
{"Strand": "GUAUCUU", "7-mer Z-score": -0.273}
{"Strand": "AACUUCG", "7-mer Z-score": 0.0515}
{"Strand": "AAAGCGC", "7-mer Z-score": 0.93}
{"Strand": "CAGUCGG", "7-mer Z-score": -0.0899}
{"Strand": "CUACAGG", "7-mer Z-score": 0.0623}
{"Strand": "AUCUGAC", "7-mer Z-score": -0.182}
{"Strand": "GAAAGAA", "7-mer Z-score": 1.58}
{"data": "Set 2", "Structure (SMILES)": "CC[n+]1c(/C=C/N(C)c2ccccc2)n(-c2ccccc2)c2ccc(-c3nc4ccccc4s3)cc21", "observed": "enzyme activity", "action": "inhibitor", "concentration": "0.5 µM", "relative to": "control"}
{"target": "HIPK4 (Homo sapiens, UniProt Q8NE63)", "remaining activity [%]": 102}
{"target": "Cyclin-dependent kinase 1, with cyclin B (CDK1, Homo sapiens, UniProt P06493)", "remaining activity [%]": 105}
{"target": "RPS6KA6 (Homo sapiens, UniProt Q9UK32)", "remaining activity [%]": 96}
{"target": "RPS6KA5 (Homo sapiens, UniProt O75582)", "remaining activity [%]": 111}
{"target": "Cyclin-dependent kinase 6, with cyclin D3 (CDK6, Homo sapiens, UniProt Q00534)", "remaining activity [%]": 92.2}
{"target": "CAMK2B (Homo sapiens, UniProt Q13554)", "remaining activity [%]": 103}
{"target": "STK17A (Homo sapiens, UniProt Q9UEE5)", "remaining activity [%]": 96.9}
{"target": "EPHB4 (Homo sapiens, UniProt P54760)", "remaining activity [%]": 103}
{"target": "TSSK2 (Homo sapiens, UniProt Q96PF2)", "remaining activity [%]": 98.4}
{"target": "SRMS (Homo sapiens, UniProt Q9H3Y6)", "remaining activity [%]": 93.7}
{"target": "AXL (Homo sapiens, UniProt P30530)", "remaining activity [%]": 101}
{"data": "Set 3", "target": "TAR DNA-binding protein 43, full length, His tag (TARDBP, Homo sapiens, UniProt Q13148, residues 1-414)", "method": "RNA Bind-n-Seq", "form": "RNA", "sample": "in vitro", "concentration": "20 nM", "notes": "6-mer, flanks averaged, single round", "together with": "150 mM KCl", "relative to": "input library", "reading": "higher = stronger binding"}
{"Strand": "GCCUCC", "6-mer enrichment (R)": 0.66}
{"Strand": "GCAUCU", "6-mer enrichment (R)": 0.629}
{"Strand": "GACAAA", "6-mer enrichment (R)": 0.763}
{"Strand": "AAUCAA", "6-mer enrichment (R)": 0.613}
{"Strand": "GAUCAG", "6-mer enrichment (R)": 0.901}
{"Strand": "UGAAGA", "6-mer enrichment (R)": 0.858}
{"Strand": "CCUCGA", "6-mer enrichment (R)": 0.618}
{"Strand": "ACGAAC", "6-mer enrichment (R)": 0.666}
{"data": "Set 4", "SMILES": "O=C(NCc1ncc(C(F)(F)F)cc1Cl)c1ccc2c(c1)C1(CCS(=O)(=O)CC1)[C@@H](C1CC1)N2S(=O)(=O)c1ccc(F)cc1", "observed": "cell-free assay", "method": "competition with immobilised ligand", "concentration": "1 µM"}
{"target": "FER (Homo sapiens, UniProt P16591)", "remaining binding [%]": 100}
{"target": "TSSK1B (Homo sapiens, UniProt Q9BXA7)", "remaining binding [%]": 100}
{"target": "CSNK1A1 (Homo sapiens, UniProt P48729)", "remaining binding [%]": 81}
{"target": "PHKG2 (Homo sapiens, UniProt P15735)", "remaining binding [%]": 84}
{"target": "CHEK1 (Homo sapiens, UniProt O14757)", "remaining binding [%]": 100}
{"target": "FLT3 (Homo sapiens, UniProt P36888, R834Q)", "remaining binding [%]": 84}
{"target": "MAP4K3 (Homo sapiens, UniProt Q8IVH8)", "remaining binding [%]": 100}
{"target": "FGFR3 (Homo sapiens, UniProt P22607, G697C)", "remaining binding [%]": 80}
{"target": "PRKX (Homo sapiens, UniProt P51817)", "remaining binding [%]": 100}
{"note": "Some of these lines once more (set 1):"}
{"Strand": "CUACAGG", "7-mer Z-score": 0.0623}
{"Strand": "AGCGGCA", "7-mer Z-score": 0.202}
{"Strand": "GAAAGAA", "7-mer Z-score": 1.58}
{"Strand": "AAAGCGC", "7-mer Z-score": 0.93}
{"Strand": "CAGUCGG", "7-mer Z-score": -0.0899}
